Published values from different studies.
A part holds a random share of what one study measured.

Series 1
Target: Histone acetyltransferase KAT6A, both winged helices, GST fusion (KAT6A, Homo sapiens, UniProt Q92794, residues 1-181)
Method: protein binding microarray
Form: double-stranded DNA, one strand shown
Medium: in vitro
Concentration: not given
Notes: 8-mer, flanks averaged, mean of 2 arrays, mostly near background
Baseline: not given
Direction: higher = stronger binding
Target sequence (chain): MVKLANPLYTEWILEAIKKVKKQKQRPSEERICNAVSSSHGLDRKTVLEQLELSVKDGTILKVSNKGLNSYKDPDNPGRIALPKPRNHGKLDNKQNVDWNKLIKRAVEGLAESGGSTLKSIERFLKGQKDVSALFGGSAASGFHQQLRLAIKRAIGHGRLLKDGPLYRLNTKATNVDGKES
Strand	E-score
ATGACTAG	-0.126
CAAGACGC	0.134
CGGTTGGA	0.0347
GGGCCGTA	0.208
ATGATTAA	-0.0283
ACTCTCCA	-0.266
CCACCTAA	-0.181
AATCTAGA	-0.11
AGAAGTAA	-0.104
CACTGCCC	-0.0411
AATTCGTG	-0.0765
ATAAGTGA	-0.191
ACCGCCAG	0.0932
CAGAGACA	-0.0964
CGTACTTC	0.145
ACACGTTG	-0.054
AAACCCAT	-0.101
ATACTTGC	0.00285
ACTGTGGG	-0.151
GCTATCCC	-0.000925
AACTCGCA	-0.127
CTTTCCTC	-0.147
ATTGGCTG	-0.194
AGCTGTGG	-0.19
CGTACAGC	0.239

Series 2
Target: RING finger protein unkempt homolog, zinc fingers 1-6, GST-SBP tag (UNK, Homo sapiens, UniProt Q9C0B0, residues 30-357)
Method: RNA Bind-n-Seq
Form: RNA
Medium: in vitro
Concentration: not given
Notes: RNA with constant flanks, ends assumed
Baseline: input RNA pool
Direction: higher = stronger binding
Target sequence (chain): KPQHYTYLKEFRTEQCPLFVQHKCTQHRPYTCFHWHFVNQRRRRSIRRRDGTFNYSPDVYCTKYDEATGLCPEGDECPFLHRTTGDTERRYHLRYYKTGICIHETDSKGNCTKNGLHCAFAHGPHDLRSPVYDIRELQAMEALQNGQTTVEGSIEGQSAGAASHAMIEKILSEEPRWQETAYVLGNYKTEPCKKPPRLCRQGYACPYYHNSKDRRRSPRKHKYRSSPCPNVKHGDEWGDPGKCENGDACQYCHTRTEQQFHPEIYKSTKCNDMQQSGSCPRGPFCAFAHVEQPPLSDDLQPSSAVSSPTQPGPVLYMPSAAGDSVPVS
Strand	bound/input enrichment
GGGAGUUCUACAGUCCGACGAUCGAAGAUGACUCUCAAGAAGAGGAAGAAGUCAGCCUACCCAAACGAGGAAGACCACAAGUCCGAUUGCCAGUUAAAACAAGAGGGAAACUUAGCUCUUCUUUCUCAAGUCGUGGCCAACAACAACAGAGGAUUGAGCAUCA	0.195 ratio
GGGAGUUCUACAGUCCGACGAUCUUUCAGUGAAGUGGAGUUACUCCAAGUGAAACGCUGUUUUCUGGUUUUAGCCAAACUGCAAUCCGAUGUGUCUUUGCAAUCUAAAAGUUGUACACAAUCAACAAUACACUUUGCUUACUCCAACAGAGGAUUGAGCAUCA	0.0784 ratio
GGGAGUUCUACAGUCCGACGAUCUCGAGCCGAUAACAGGGUUCGGGUGUCUGGUGUGUGACCAUCACAGGGUUUGUGGAUGCACUCCGAUGUUUGCAAUGAGCACUGUGGCUGGCAUGCCCCAGUAUUUUGGAUACCAAUGCACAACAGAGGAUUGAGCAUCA	0.147 ratio
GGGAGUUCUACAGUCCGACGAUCGUGGGAGUUCUCCUACAGGAUCAUGAUGUUCGGCAGAGUGAAUUUCAGCAACUUCCGUACCACCGGAUUUUUAUCAUGCUGCUGUUGGAGCUCAAUGCACCCGAGCAUGUGUUGGAAACCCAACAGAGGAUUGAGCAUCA	0.169 ratio
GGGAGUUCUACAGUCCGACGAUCUACAGGCAAAGUUGAAUCUUCUGUCUUCCUGGCAAAAAAUGGCAUAAAAACUGAGUUGCCCGCUCAAAUUCCUGGGUUUCAUGGAAUUAUGAUUGAGGCACUACCCUGGUAGUGGCCGUUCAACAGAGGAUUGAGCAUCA	0.205 ratio
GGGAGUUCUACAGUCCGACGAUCGUUGACUCCCUCAAUGGAUUGGUUUACAUAGGUCAAAGAGGGGAUAACAUCCCAAAGAUAUCCGUGUUCACAGAGGAUGGAUAUUUCCUACGAGCCUGGAAUUAUACAGUUGACACACCUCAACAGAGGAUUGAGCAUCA	0.164 ratio
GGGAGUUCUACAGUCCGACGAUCGAAGGGCUAUCUUUCUAUUCACAUCAAACCUUUUGUUGCGUGUUUCUGUUUUUUAAUACUUCCGGGUUCUGAUUUGUGGGAACAGACCUUGUAAAUAACCACUGUUCACAUGUGUGGCAGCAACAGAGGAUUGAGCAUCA	0.479 ratio
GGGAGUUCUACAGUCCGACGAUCCGGGUCGGAGAUUAUGUCUACUUUGAGAAUUCCUCCAGCAACCCAUACCUAAUAAGAAGGACCGAAGAACUCAACAAGACUGCAAGUGGCAACGUGGAAGCAAAAGUAGUAUGCUUUUAUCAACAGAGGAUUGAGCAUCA	0.804 ratio
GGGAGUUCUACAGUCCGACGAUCAUGAGAGCUCCAAAACACUUUCUUCCUGAGAUGCUAAGCAAAGUGAUCAUCCUGUCACUUGACCGAAGUGAUGAAGAUAAAGAAAAAGCAAGCUCUUUAAUCAGUUUACUCAAACAGGAACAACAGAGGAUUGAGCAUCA	0.0728 ratio
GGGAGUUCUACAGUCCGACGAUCCAACAGAGUCUAGGAUGGGUUCAUUACAUGAUUCAUGAGCCAGAACCGCAUAUUCUUCUCUUCCGACGACCUCUUCCAAAAGAACAACAAAAAUGAAGUGCAGCUGGGAUCAUCUAAUCUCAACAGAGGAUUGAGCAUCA	0.257 ratio
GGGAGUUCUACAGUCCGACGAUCUAUAUUUUGGAUUUUGUUUGUGUUGAAUUUUUUAAUCAUUGUGCACAGAAGCAUCAUUGGCCGCUUUUAUAUGCAAAAUGGUCAUUUCAGAUGUAUGGUGUUUUUACACUACAAAGAAGUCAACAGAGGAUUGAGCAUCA	0.15 ratio

Series 3
Target: TAR DNA-binding protein 43, full length, His tag (TARDBP, Homo sapiens, UniProt Q13148, residues 1-414)
Method: RNA Bind-n-Seq
Form: RNA
Medium: in vitro
Concentration: 20 nM
Notes: 6-mer, flanks averaged, single round
Added: 150 mM KCl
Baseline: input library
Direction: higher = stronger binding
Strand	6-mer enrichment (R)
UUUAGU	0.658
AAGCCA	0.668
UUCCCG	0.597
ACUCAG	0.666
GUUGUG	1.43
GUUUAA	0.661
AUCACG	0.666
UCGCGG	1.56
AAGUUA	0.597
GGACGU	1.56
UCCCCC	0.655
GACUAU	0.647
GCUUGG	1.51
ACAGUA	0.662
UACUCU	0.549
GCAAUC	0.655
AAGAGA	0.919

Series 4
Target: RNA binding protein fox-1 homolog 2, RRM domain, GST-SBP tag (RBFOX2, Homo sapiens, UniProt O43251-10, residues 100-194)
Method: RNA Bind-n-Seq
Form: RNA
Medium: in vitro
Concentration: 365 nM
Notes: natural RNA segment, single round, ends assumed
Baseline: no-protein control
Direction: higher = stronger binding
Construct (chain): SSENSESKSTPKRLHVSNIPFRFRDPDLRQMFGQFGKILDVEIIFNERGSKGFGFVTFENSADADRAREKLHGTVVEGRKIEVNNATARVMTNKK
Strand	RBNS enrichment (R)
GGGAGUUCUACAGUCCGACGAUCUGCGUCCUCUGGGACCUUCUUAGAUGCUGUAAGGUACCUACAUACAGACUAAAUGUGCAAGCACCUUGAAGUGUGAGAACCUGUCCCCUCCUUAGCUCUCCUUGUCUUUGUGGAAUUCUCGGGUGCCAA	0.427
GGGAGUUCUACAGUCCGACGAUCACAAAGACAGUUCAGCUCCAGACACUGAACUUGGAAUCCUUUGUCUUUGGAUUAAAAGUCAUAAACUUAAAAAAAAAAAUCUCUUUAUUCAAAAAGAUAGUUAAAUCAUGUGGAAUUCUCGGGUGCCAA	0.767
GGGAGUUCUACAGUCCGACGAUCGAGGUGGAGGUUACAGUGAGCUGAGAGUGCCCCACUGCACUCCAGCCUGGGUGACAGAGCGAGACUUUGUCCCAAAACAAAAUAGGUGAGGGGAUAGCGAAUGCACUCAGUGGAAUUCUCGGGUGCCAA	0.928
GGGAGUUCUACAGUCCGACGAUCCAGCCCCAGCCCCAGCUCCAGCCCUGAGGACAGCUCUGAUGGGAGAGCUGGGCCCCCUGAGCCCACUGGGUCUUCAGGGUGCACUGGAAGCUGGUGUUCGCUGUCCCCUGUGGAAUUCUCGGGUGCCAA	0.338
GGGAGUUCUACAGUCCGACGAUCCGGAUGGCAGAUACUGGCCUUUGAAACUCUGUUGAUUCAUCUCUUCUAAUCGGUCCCCAAGGAGAAAGAACAUAAACAAAGAGUGAGGUCUUCCCUCCCACUGAACACUAUGGAAUUCUCGGGUGCCAA	0.496
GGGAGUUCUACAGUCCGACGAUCAUUAUUCCCCCUAUCAUUCCUUUACAGUGCCUAGUGCUACUCAUUAUGUGUUCAUUGAAUUUGACUGACAUAGUUAAAAACUUAAGGUUUAUUUUAGACUUUCAAGGAAAUGGAAUUCUCGGGUGCCAA	0.474
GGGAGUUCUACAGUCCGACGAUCCAGCAGACUUUCUCUGUGUAUGAGUGUGAAUGAUCAAGUCCUUUGUGAAUAUUUUCAACUAUGUAGGUAAAUUCUUAAUGUUCACAUAGUGAAAUAAAUUCUGAUUCUUCUGGAAUUCUCGGGUGCCAA	0.828
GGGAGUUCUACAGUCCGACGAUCCACCCACCCCAGCCCUUCCGCUCUGCCUAGCUCUCCCCACCCCCUUCCAUAACCCAAUUCAGGUUUUUAACUCAAUGUAGAUUCUCCAAGCACUUUACAGAUGAGGGUUGUGGAAUUCUCGGGUGCCAA	0.77
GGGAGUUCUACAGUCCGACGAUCGUAGCCUGAGCCCAAGGCCAGCCUGGGCUACCUAACAAGACCCUGUCUCUAAAAGAAAAAAGAAUUAACAUCUUAUUUUCUUAGAUUUUAAGAGAGAGUCUCUGGCAAGAUGGAAUUCUCGGGUGCCAA	0.3
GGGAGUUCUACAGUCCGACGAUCGGGAUGCUGGUGGCUCUUCAGAGGAGCAUCAGCUGUCUGUCAUCUGCUGCGAUCCGGCAGCCUCUCUUCACUGCUACAUGUGCUGGAAGGACAAAUAAAUAAUUGUGGUUUGGAAUUCUCGGGUGCCAA	0.417
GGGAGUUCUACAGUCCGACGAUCAAUUGCUAUGUUCUCAUGGAUAAACUUUGCCAGCAAAAAUCAGGCUUUUGAACAAUUUUAAUUUUUUGCCUCAUAAAUUUUGUGAAUGCUAUUCAUUAUAGGGCUUGUAUUGGAAUUCUCGGGUGCCAA	0.895
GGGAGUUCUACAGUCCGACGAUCAGGCCAUCGACGACCUCAUGCCUGCCCAGAAAUGAAGCCCGGCCCACACCCGACACCAGCCCUGCUGCUUCCUAACUUAUUGCCUGGGCAGUGCCCACCAUGCACCCCUGUGGAAUUCUCGGGUGCCAA	0.797

Series 5
Target: Sal-like protein 4, full length isoform B (SALL4, Homo sapiens, UniProt Q9UJQ4-2, residues 1-616)
Method: universal PBM
Form: double-stranded DNA, one strand shown
Medium: in vitro
Concentration: not given
Notes: 8-mer, flanks averaged, mean of replicates
Direction: higher = stronger binding
Construct (chain): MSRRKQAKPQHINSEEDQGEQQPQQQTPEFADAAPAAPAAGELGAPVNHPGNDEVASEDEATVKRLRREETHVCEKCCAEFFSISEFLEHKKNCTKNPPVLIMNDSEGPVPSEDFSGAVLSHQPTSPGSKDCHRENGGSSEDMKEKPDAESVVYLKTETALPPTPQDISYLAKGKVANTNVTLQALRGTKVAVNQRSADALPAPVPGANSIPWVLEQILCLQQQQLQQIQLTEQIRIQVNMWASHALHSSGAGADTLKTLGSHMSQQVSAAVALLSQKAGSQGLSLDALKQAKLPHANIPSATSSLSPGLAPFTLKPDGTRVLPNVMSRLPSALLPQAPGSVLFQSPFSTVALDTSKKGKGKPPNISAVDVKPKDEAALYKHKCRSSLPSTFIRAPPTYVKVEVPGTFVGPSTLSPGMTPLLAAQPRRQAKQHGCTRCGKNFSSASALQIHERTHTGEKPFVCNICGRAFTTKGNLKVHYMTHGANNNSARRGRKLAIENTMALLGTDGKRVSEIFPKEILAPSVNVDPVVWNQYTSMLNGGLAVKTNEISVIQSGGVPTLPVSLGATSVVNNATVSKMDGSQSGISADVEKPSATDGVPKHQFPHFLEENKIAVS
Strand	E-score
GACGGGGC	-0.295
GGAGAGAC	-0.0823
CTGTGGAC	-0.17
CGTGAACC	-0.183
ACTGTCAC	0.044
CAGATCTA	0.081
AATCTTGT	0.137
GAACAACA	-0.012
AACTGAAT	0.0626
GGTAGGTA	-0.0629
CTCAACCC	-0.204
CTGAAAGC	-0.114
ATCGCGAT	0.0657
GAGCACGC	-0.18
GAGAAGCC	-0.235
AATGCTAC	0.188
AGAACTTC	-0.168
AAAACTCT	-0.0638
CCATAAAC	0.123
ACCTTCGT	-0.0344
GGGGGGAC	-0.328
TCCCCACA	-0.0984
CTTTGGTC	-0.0459
AATAAATA	0.425
AGGTAAGG	0.0249

Some of these lines once more (series 1):
Strand	E-score
CAGAGACA	-0.0964
CGTACTTC	0.145
ACACGTTG	-0.054
AAACCCAT	-0.101
ATACTTGC	0.00285
ACTGTGGG	-0.151
GCTATCCC	-0.000925
AACTCGCA	-0.127
CTTTCCTC	-0.147
ATTGGCTG	-0.194
